Published values from different studies.
Parts stem from different laboratories: compare values within a part only.

Set 1
Target: Ras GTPase-activating protein-binding protein 1, full length (G3BP1, Homo sapiens, UniProt Q13283)
Chain of UniProt Q13283 (whole entry, looked up): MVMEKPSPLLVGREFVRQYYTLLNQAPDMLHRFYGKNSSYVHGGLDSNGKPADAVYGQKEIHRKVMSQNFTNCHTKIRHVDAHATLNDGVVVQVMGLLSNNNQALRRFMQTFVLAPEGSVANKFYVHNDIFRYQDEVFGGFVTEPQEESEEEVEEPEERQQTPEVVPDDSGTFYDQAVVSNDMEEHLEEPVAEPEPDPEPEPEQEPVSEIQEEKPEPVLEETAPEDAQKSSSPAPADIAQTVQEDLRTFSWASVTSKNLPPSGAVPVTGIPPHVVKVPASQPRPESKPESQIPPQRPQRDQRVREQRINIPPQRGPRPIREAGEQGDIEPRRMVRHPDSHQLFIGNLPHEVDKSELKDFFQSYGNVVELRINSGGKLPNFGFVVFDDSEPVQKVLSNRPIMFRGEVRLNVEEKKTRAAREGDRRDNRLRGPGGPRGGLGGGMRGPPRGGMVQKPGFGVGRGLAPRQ
Method: RNA Bind-n-Seq
Molecule type: RNA
Sample: in vitro
Tested at: 200 nM
Setting: whole 134-nt RNA, ends assumed
Together with: 150 mM LiCl
Relative to: input library
Direction: higher = stronger binding
Each molecule: 7-deaza-guanosine replaces G
With `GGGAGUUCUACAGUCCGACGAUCCUCAAGUCCUGUGCUACACAUCGUAUGUACCGAAUCGGUUUGGUUUGGGUUUGGAAAGUAUUAUGUUACGCCGUUCGGAUCUGCACUUCCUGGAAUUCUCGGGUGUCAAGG` the log2 enrichment was 0.194.
The log2 enrichment of `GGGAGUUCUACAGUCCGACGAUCCACAGACAACAUGCACCCACACAGACACAGAGGGAAGGGGUUGGGAUGGGGACAGGGUGCACAGCAGGGCGGGGUAGGACCCCAGCCCCUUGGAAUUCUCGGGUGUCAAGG` is reported as -0.519.
With `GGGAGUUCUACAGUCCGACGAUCUGGGAGGUGGAUUUUGUUUAUUUUUUUAGCUCAUUUCCAGGGGUGGGAAUUUUUUUUUAAUAUGUGUCAUGAAUAAAGUUGUUUUGGAAAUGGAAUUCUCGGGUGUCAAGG` the log2 enrichment was -0.32.
`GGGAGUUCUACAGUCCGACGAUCCUCAAGUCCUGUGCUACACAUCGUAUGUACCGAAUCGGAAAAAGGAGGUUUGGAAAGUAUUAUGUUACGCCGUUCGGAUCUGCACUUCCAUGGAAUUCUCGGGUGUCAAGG` has a log2 enrichment of -0.125.
The log2 enrichment of `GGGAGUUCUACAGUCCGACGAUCACCAUGCAGGUGGGCAUCUUUGGGAAGUGGGGCAAGGGGGGGAUAGGGAGGGGGGUAACACUUUCGGAACAGGUGGUCCCAGGUCGUUUCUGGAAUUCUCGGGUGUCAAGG` is reported as -0.0314.
`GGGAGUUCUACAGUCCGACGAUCUCCUGUGCUACACAUCGUAUGUACCGAAUCGGGAAAAAAGGGAAAAAAGGGAAAAAAGGGAAAGUAUUAUGUUACGCCGUUCGGAUCUGCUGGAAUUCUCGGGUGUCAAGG` gave a log2 enrichment of 0.269.
`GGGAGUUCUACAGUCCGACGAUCCCUCAAGUCCUGUGCUACACAUCGUAUGUACCGAAUCGGGGAGGGGAGGAGGAAAGUAUUAUGUUACGCCGUUCGGAUCUGCACUUCCAGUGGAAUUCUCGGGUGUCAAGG` has a log2 enrichment of -0.208.
With `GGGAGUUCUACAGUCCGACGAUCUUAAAGAAGAGGGUGUGCGGGACGUCCUUAAGGAUGUACUGCUCCCAUGGUACAAUGCCUAUCGCUUCUUAAUCCAGAACGUUCUGAGGCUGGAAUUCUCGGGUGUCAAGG` the log2 enrichment was -1.86.
`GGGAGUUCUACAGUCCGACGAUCCACAGACAACACGCACCCACACAGACACAGAGGGAAGGGGUUGGCAUGGGGACAGGGUGCACAGCAGGGCGGGGUAGGACCCCAGCCCCUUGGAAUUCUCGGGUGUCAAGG` has a log2 enrichment of -1.12.
`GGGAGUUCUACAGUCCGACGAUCUGGCCCUGGUGGCAUGCGGGGAGGAAGAGGUGGCCUCAUGGAUCGUGGUGGUCCCGGUGGAAUGUUCAGAGGUGGCCGUGGUGGAGACGGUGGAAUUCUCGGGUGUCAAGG` gave a log2 enrichment of -0.102.
The log2 enrichment of `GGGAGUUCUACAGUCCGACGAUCCAAGUCCUGUGCUACACAUCGUAUGUACCGAAUCGGGUUUGGGAAAAAGGGAGGGAAAGUAUUAUGUUACGCCGUUCGGAUCUGCACUUCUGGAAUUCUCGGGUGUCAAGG` is reported as 0.365.

Set 2
Target: Centromere-binding protein 1, full length, N-terminal tag (CBF1, Saccharomyces cerevisiae, UniProt P17106, residues 1-351)
Chain of UniProt P17106 (whole entry, looked up): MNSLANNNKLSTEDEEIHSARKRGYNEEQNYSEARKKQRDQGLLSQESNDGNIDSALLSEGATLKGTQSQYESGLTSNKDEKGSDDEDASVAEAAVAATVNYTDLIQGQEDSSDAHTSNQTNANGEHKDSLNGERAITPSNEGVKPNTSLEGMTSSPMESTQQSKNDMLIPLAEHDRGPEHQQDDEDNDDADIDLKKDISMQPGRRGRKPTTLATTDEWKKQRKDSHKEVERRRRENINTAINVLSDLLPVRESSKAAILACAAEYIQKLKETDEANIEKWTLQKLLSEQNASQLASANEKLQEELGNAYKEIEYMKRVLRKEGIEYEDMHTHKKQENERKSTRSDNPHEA
Method: protein-binding microarray
Molecule type: double-stranded DNA, one strand shown
Sample: in vitro
Tested at: 0.8 µM
Setting: whole 60-bp probe, no competitor
Direction: higher = stronger binding
For `GAACGTAAAGTACATCATGTTTACCAGTTTAAATAGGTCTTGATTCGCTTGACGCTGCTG`, the fluorescence intensity was 542 a.u.
For `GAACCCCTCATTCCAGGCGTGACGGGATTTCTTTAGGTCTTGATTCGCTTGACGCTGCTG`, the fluorescence intensity was 681 a.u.
For `GAATTGTGGGTTTATTACGTGAAAAAATGATGTTAGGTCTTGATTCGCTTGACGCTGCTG`, the fluorescence intensity was 555 a.u.
`GAAATTCCGTTTCATCATATGATCTGGCCGTCTTAGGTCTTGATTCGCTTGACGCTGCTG` gave a fluorescence intensity of 703 a.u.
`GAATATCTCTAGTATAACGTGCCGTATATTTCCTAGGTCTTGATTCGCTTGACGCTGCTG` has a fluorescence intensity of 743 a.u.
`CTAAGACATCTAACAGGTGAGTTTGAAAAGTAATTCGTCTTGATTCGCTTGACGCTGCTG` gave a fluorescence intensity of 529 a.u.
For `CTAAATTTAGTTGAACATGTGACGAAAGCTCTGTTCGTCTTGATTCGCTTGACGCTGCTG`, the fluorescence intensity was 5210 a.u.
With `GAATAAATTCTGCAGAACGTGAAAGGTTCGATTTAGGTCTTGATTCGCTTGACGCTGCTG` the fluorescence intensity was 581 a.u.
For `CTAGAAATATTCGTGTTCGTGCGTCGCGATTTTTTCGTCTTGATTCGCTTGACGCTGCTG`, the fluorescence intensity was 538 a.u.
`GAAAAGAGTTTAGATCACGAGTATTTTCGCTCTTAGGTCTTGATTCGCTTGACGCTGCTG` gave a fluorescence intensity of 1400 a.u.
The fluorescence intensity of `CTAAACAATCTTAGTCACCTTGTATTGATTCACTTCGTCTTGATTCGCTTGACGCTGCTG` is reported as 555 a.u.
The fluorescence intensity of `CTATACTGTATCTATTTCGTGACTTCTTAAATGTTCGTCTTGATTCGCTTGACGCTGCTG` is reported as 735 a.u.
`GAACAGCATTGCGCTTGCGTGCCGCTCCGAGAATAGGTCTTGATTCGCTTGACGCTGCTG` gave a fluorescence intensity of 532 a.u.
With `CTACGTACATAATTCAGCGTGATATGATGAAATTTCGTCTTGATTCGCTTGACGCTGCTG` the fluorescence intensity was 639 a.u.
With `GAACTTGAAAACGTGCATGTGATGATGGCATCGTAGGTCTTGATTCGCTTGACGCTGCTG` the fluorescence intensity was 2250 a.u.
`TGTACGAAGCTATGTGAGGTGACTATAGTAGTTAGGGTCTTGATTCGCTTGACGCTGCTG` has a fluorescence intensity of 501 a.u.
`GAAAACGGGGATCAACATCAGCAAGAAAGCAAATAGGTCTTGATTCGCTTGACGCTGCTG` gave a fluorescence intensity of 689 a.u.
The fluorescence intensity of `CTAAACACAAGCCCCCACGATGGCCTACTCTTCTTCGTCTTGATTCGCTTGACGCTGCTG` is reported as 490 a.u.
With `GAAATTTAAGGAGCCTACATCAGGACAGTAGTATAGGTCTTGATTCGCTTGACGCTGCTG` the fluorescence intensity was 536 a.u.
`GAAGGAAAAATTGATCACGTGATATATAGCAACTAGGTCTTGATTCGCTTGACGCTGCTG` has a fluorescence intensity of 45500 a.u.
`GAAGTTCACTGGGGTAATCACATGTGATATCTATAGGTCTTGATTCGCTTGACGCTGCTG` has a fluorescence intensity of 4810 a.u.
`GAACTAGTTTATTATCACGTGCGGTGTAAGAAGTAGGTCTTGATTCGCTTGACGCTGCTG` has a fluorescence intensity of 10700 a.u.
`CCTAACTACTATAGTACTGATCAATAGCTTCGTACAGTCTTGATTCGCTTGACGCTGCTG` gave a fluorescence intensity of 530 a.u.
With `GAACGGGCTGCCAACCCCGTGGACCGTCAGGTATAGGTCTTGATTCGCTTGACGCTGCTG` the fluorescence intensity was 531 a.u.
With `GAACACGGAACGCACGTGGCGGGACTCGTAGGTTAGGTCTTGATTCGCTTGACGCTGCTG` the fluorescence intensity was 4290 a.u.

Set 3
Target: RNA binding protein fox-1 homolog 2, RRM domain, GST-SBP tag (RBFOX2, Homo sapiens, UniProt O43251-10, residues 100-194)
Method: RNA Bind-n-Seq
Molecule type: RNA
Sample: in vitro
Tested at: 365 nM
Setting: natural RNA segment, single round, ends assumed
Relative to: no-protein control
Direction: higher = stronger binding
Residues (chain): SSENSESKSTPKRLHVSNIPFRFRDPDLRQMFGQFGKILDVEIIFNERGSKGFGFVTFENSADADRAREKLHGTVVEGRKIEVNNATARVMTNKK
`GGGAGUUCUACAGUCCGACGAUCUUCAUUUUAAGGGCACACGCAGCAGAGGCUGGUUUGGAGACUAACACAUUUUGCAUUCUGCAUUGUUGUCUUAGAGCACACACACGUUAGACAGCGGGUUGCAGCCACCCUGGAAUUCUCGGGUGCCAA` — result for “RBNS enrichment (R)”: 0.709.
`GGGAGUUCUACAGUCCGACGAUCCUCCAAAACCCAUGAACACGGCCAAAACCCAUAAAAACAACAAAAGCAAACUAAGUCAAGAACCGUAGUAUCUGUAGGCACUUAGUUAAGUAUAGCAACUCAAACCAGACUGGAAUUCUCGGGUGCCAA` — result for “RBNS enrichment (R)”: 0.896.
`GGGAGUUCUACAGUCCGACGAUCCCUCUGUUUUUCUGAAGGCUGUUCCAGCAGGGCUGCCCUGUUCAUCAGCGGAUGUUCACUCUGGCCUGCCGUUCCCCGUGGCAUGCGGGGUGAGGGUGGCUUUCUUCCAGUGGAAUUCUCGGGUGCCAA` — result for “RBNS enrichment (R)”: 0.501.
Under “RBNS enrichment (R)”, `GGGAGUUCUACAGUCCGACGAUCUACCACCAGUCACCUGCAUCAUUCAUGCUAGAAGCUGUGUUCUAGCCAUGCAGUUACAUCUCUUUCUAAAUGAGGUCAGGUUUGCAAAUAAUAACAACAAAAAAGCUUUGUGGAAUUCUCGGGUGCCAA` is recorded as 0.467.
`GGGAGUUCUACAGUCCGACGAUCUUUUGAGCUAAAAAUAAAAGUUAAUUUCAUACUAUAUAGAUUUUCUUUUUUAUCUUGUAUGUCCCCCUCUUAGUCUGCUGAGCUUUUGUUUUGCUUGGUUUUCAGUGAUAUGGAAUUCUCGGGUGCCAA`: “RBNS enrichment (R)” 0.601.
For `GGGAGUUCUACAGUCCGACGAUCAUUAAGACUGCAGAGAUUUACAGAGCAUCCUUUCAAGAUCGGGGUCCGGAGGAGCAGCUUCGUGCUGCGCGAACUUUAGCAGGAGGACCGAUGAUUAGCAUUUAUGAUGCUGGAAUUCUCGGGUGCCAA`, “RBNS enrichment (R)” read 0.471.
For `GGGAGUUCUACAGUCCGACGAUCGCUGAGAGCUUUUAGAACAAGCAGGCAUUUAUUUAAUGUUUCCUUAGUCCAUUGGCAAGCUUUAUCAAUAGCUUAAUGGCAGAGGAUAAAGGCUCAAACAGAUGAUGUUUUGGAAUUCUCGGGUGCCAA`, “RBNS enrichment (R)” read 0.277.
For `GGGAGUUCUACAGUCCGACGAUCCUAAAUUACCAGCAAAACAAACCACUCUCCUGUUUGAGUAAAAUGAGAAAGUUAAUAUGUGGCCUCCUUUUCUGAAGCCAGAUCAAACUGUUACCUUGUGUUCCACCUUGUGGAAUUCUCGGGUGCCAA`, “RBNS enrichment (R)” read 0.324.
`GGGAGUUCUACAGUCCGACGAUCGAAAGGACUGACAGUGGCGGUGCCCCAUAGGAUGUCAUAUUGAGGCCCAAACUUGAUUGGAGAAUUUGCAAACUACCGUCGCUCAGCAACACCAAAAAGAGAAAGUCUGGUGGAAUUCUCGGGUGCCAA` — result for “RBNS enrichment (R)”: 1.2.

Set 4
Target: Sal-like protein 4, full length isoform A (SALL4, Homo sapiens, UniProt Q9UJQ4, residues 1-1053)
Chain of UniProt Q9UJQ4 (whole entry, looked up): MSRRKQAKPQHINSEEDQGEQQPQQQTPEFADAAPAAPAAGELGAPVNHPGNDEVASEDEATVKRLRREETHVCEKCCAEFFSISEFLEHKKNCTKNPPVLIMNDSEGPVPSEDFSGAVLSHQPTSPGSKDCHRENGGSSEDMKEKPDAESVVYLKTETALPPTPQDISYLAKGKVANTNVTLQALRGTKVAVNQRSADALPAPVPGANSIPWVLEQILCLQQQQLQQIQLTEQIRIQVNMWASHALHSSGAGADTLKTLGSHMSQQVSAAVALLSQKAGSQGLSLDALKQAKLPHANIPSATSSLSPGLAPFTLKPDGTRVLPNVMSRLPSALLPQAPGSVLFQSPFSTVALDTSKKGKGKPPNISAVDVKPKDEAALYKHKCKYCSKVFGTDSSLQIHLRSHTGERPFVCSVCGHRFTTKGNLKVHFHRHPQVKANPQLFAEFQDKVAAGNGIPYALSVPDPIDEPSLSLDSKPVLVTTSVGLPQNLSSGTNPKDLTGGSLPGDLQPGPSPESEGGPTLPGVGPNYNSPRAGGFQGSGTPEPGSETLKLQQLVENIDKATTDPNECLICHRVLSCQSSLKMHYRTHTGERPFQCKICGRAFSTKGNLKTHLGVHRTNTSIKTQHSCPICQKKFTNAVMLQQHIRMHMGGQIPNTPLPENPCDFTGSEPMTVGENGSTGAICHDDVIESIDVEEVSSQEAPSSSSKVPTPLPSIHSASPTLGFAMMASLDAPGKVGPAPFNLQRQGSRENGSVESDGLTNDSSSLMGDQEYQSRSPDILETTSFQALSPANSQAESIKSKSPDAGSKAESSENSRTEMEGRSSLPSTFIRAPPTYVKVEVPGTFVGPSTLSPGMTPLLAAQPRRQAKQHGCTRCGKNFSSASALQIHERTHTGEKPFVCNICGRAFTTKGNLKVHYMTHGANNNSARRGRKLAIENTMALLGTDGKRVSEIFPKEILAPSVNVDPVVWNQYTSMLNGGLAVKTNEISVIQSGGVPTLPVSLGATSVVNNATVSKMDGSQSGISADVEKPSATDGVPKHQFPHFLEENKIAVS
Method: universal PBM
Molecule type: double-stranded DNA, one strand shown
Sample: in vitro
Tested at: 600 nM
Setting: 8-mer, flanks averaged, mean of replicates
Direction: higher = stronger binding
The E-score of `AGCCCATC` is reported as -0.168.
With `CCACGTAG` the E-score was -0.294.
With `TCGACGCA` the E-score was -0.117.
The E-score of `GAGGTGGA` is reported as -0.174.
For `ATTAGACA`, the E-score was 0.287.
The E-score of `AGAACCCC` is reported as -0.226.
`ATCAAAGC` gave an E-score of -0.0668.
With `AGGGGCGG` the E-score was -0.283.
With `GACGGGAC` the E-score was -0.313.
`CAGTGCAC` has an E-score of -0.205.
For `ATGCGCAA`, the E-score was 0.0685.
With `CTAGTAGC` the E-score was -0.103.
`TAGACGAA` has an E-score of 0.222.
The E-score of `AAGTATAC` is reported as 0.312.
For `ACAGGCTA`, the E-score was 0.0102.
`ACGCGTCC` gave an E-score of -0.158.
The E-score of `CCATTACG` is reported as -0.0919.
`GTATGCCA` gave an E-score of -0.155.

Some of these lines once more (set 2):
For `CTAAATTTAGTTGAACATGTGACGAAAGCTCTGTTCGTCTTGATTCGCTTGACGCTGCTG`, the fluorescence intensity was 5210 a.u.
The fluorescence intensity of `CTAAACACAAGCCCCCACGATGGCCTACTCTTCTTCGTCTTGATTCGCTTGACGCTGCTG` is reported as 490 a.u.
`GAACAGCATTGCGCTTGCGTGCCGCTCCGAGAATAGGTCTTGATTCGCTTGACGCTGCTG` gave a fluorescence intensity of 532 a.u.
`GAACTAGTTTATTATCACGTGCGGTGTAAGAAGTAGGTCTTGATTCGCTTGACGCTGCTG` has a fluorescence intensity of 10700 a.u.
